{"data": "Assay results of several laboratories", "note": "Each numbered part is a random draw from the data of one study; scales do not carry over between parts.", "chain of UniProt P42336 (whole entry, unmodified, looked up)": "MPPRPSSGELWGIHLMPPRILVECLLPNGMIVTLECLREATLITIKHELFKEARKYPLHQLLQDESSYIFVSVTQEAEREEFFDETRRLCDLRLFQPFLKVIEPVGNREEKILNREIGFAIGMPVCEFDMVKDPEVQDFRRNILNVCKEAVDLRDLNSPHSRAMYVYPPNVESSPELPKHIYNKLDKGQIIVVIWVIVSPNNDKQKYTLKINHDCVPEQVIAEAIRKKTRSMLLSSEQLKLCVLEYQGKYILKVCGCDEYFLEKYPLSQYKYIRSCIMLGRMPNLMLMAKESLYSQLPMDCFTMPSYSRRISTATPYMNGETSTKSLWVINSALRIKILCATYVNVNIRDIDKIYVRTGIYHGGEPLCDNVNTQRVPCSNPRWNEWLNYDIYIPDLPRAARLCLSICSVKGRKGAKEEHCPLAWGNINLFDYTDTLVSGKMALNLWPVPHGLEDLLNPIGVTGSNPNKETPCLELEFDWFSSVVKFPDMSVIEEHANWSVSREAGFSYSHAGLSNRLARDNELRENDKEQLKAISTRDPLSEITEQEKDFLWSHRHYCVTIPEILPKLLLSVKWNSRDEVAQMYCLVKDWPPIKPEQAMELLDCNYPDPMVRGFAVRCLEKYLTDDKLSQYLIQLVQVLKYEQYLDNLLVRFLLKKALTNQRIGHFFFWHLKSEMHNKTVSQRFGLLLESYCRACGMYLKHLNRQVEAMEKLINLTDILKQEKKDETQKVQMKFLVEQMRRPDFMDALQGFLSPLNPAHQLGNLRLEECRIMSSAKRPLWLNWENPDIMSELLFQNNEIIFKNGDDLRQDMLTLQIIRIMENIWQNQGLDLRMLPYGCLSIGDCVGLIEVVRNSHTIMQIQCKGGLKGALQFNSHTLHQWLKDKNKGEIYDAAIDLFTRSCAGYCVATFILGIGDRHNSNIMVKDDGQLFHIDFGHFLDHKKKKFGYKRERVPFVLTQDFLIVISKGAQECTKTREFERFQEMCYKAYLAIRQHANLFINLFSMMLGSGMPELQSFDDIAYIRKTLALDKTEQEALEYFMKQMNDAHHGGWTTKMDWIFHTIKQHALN", "chain of UniProt Q13470 (whole entry, looked up)": "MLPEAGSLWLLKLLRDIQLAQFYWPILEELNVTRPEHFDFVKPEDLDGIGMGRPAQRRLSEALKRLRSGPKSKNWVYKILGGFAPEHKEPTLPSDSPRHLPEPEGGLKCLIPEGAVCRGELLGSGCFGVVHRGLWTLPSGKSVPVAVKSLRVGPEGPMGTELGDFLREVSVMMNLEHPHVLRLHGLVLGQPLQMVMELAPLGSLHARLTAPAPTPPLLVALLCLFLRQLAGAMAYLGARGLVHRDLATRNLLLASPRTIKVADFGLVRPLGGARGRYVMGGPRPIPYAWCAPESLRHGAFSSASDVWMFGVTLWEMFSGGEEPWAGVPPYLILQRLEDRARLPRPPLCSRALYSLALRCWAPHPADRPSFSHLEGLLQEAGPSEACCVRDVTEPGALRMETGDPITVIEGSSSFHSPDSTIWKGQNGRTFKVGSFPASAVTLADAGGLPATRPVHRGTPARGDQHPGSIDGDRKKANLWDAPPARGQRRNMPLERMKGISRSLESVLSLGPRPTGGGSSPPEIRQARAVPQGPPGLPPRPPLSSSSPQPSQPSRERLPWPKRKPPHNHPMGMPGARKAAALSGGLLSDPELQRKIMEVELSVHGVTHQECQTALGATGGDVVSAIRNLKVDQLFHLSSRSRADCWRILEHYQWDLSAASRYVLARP", "chain of UniProt O43283 (whole entry, looked up)": "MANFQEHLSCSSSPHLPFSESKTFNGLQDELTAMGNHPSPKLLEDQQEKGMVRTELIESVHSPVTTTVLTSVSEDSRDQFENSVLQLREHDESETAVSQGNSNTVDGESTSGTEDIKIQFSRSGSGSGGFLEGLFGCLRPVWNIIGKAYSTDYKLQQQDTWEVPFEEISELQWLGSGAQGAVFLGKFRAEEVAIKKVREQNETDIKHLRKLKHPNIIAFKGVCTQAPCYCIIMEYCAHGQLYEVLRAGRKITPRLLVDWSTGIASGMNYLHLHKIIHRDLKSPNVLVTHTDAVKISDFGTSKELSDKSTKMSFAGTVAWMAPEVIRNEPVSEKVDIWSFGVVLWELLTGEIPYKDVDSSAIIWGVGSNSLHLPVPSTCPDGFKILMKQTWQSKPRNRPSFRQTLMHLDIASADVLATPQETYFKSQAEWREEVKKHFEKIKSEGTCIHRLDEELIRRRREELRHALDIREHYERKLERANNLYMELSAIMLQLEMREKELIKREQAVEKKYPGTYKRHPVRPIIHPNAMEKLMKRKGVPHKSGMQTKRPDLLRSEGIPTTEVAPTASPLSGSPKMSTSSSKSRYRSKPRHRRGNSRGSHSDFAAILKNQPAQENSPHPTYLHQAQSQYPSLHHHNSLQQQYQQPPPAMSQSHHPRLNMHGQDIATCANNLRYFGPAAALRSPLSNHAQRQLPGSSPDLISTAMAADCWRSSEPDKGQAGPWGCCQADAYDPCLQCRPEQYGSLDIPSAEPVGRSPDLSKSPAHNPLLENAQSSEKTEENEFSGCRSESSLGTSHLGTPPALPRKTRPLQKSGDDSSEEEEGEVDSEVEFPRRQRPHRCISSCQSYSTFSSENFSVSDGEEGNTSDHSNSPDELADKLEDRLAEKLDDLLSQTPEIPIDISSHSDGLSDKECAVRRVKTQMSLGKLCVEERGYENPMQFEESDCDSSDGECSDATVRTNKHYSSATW", "chain of UniProt Q52WX2 (whole entry, looked up)": "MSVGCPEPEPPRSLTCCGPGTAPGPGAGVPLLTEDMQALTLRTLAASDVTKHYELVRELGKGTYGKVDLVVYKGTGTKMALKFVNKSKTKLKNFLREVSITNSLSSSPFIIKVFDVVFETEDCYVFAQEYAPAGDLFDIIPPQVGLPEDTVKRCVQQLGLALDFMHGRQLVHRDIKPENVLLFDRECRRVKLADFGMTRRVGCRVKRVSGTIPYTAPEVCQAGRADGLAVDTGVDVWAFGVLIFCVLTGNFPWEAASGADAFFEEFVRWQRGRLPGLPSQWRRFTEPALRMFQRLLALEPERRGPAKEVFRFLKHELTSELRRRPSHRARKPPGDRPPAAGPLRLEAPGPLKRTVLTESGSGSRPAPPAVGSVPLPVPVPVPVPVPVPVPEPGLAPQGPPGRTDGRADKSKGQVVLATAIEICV"}
{"data": "Study 1", "host": "mouse", "sample": "microsomes or S9", "concentration": "2 µM", "time": "0.5 h"}
{"SMILES": "Oc1c2ccc(-c3ccco3)nc2nn1-c1ccccc1", "remaining compound [%]": 0.337}
{"SMILES": "CC(C)c1cc(C(=O)N2CCC(Oc3ccc(-c4ccc(S(C)(=O)=O)cc4F)nc3)CC2)no1", "remaining compound [%]": 0}
{"SMILES": "CC(c1ccc(F)cc1)N(C)C(=O)c1ccc(-c2ccncc2)[nH]c1=O (stereo not drawn)", "remaining compound [%]": 30.6}
{"SMILES": "COC(=O)c1cc(NC(=O)CC2NCCNC2=O)cc(C(=O)OC)c1 (stereo not drawn)", "remaining compound [%]": 82.5}
{"SMILES": "COC(=O)CN(c1ccccc1OC)S(C)(=O)=O", "remaining compound [%]": 31.9}
{"SMILES": "C(=C\\c1ccc2ccnc(N3CCOCC3)c2c1)/c1ccncc1", "remaining compound [%]": 14.7}
{"SMILES": "COC(=O)Cn1nc2c3c(C)c(C)sc3ncn2c1=O", "remaining compound [%]": 0.329}
{"data": "Study 2", "Compound": "Nc1c(C(=O)NCc2ccc(C(=O)NCCCC3CCCCC3)cc2)cnn1-c1ccccc1", "effect on": "cell-free assay", "method": "competition with immobilised ligand", "concentration": "0.1 µM"}
{"target": "PIK3CA (Homo sapiens, UniProt P42336, M1043I)", "remaining binding": "100%"}
{"target": "PIK3CA (Homo sapiens, UniProt P42336)", "remaining binding": "100%"}
{"target": "TNK1 (Homo sapiens, UniProt Q13470)", "remaining binding": "91%"}
{"target": "Ribosomal protein S6 kinase alpha-2, N-terminal kinase domain (RPS6KA2, Homo sapiens, UniProt Q15349)", "remaining binding": "100%"}
{"target": "DSTYK (Homo sapiens, UniProt Q6XUX3)", "remaining binding": "100%"}
{"target": "Tyrosine-protein kinase ABL1, phosphorylated (ABL1, Homo sapiens, UniProt P00519, F317L)", "remaining binding": "100%"}
{"target": "MAP3K13 (Homo sapiens, UniProt O43283)", "remaining binding": "100%"}
{"target": "SBK1 (Homo sapiens, UniProt Q52WX2)", "remaining binding": "82%"}
{"target": "BMP2K (Homo sapiens, UniProt Q9NSY1)", "remaining binding": "100%"}
{"data": "Study 3", "target": "Calcium/calmodulin-dependent protein kinase type II subunit alpha (CAMK2A, Homo sapiens, UniProt Q9UQM7)", "effect on": "enzyme activity", "action": "inhibitor", "concentration": "10 µM", "chain of UniProt Q9UQM7 (whole entry, looked up)": "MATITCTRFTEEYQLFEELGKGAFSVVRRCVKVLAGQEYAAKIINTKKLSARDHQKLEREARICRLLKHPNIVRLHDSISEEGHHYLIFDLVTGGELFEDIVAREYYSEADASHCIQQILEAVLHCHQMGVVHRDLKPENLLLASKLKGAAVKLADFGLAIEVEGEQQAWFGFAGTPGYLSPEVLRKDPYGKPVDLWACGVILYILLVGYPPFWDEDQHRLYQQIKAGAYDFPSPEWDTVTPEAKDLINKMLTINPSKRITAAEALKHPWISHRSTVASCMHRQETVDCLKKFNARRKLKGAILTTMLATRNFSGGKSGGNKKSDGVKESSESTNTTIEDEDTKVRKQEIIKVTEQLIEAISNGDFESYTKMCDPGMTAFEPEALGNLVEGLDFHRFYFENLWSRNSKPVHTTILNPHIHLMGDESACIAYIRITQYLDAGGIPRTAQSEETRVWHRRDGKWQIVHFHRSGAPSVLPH"}
{"SMILES": "c1ccc2c(CC3=NCCN3)cccc2c1", "inhibition": "-11%"}
{"SMILES": "COc1cc(OC)c(C(=O)CCCN2CCCC2)c(OC)c1", "inhibition": "-6%"}
{"SMILES": "O=C(O)Cc1ccc(-c2ccccc2)cc1", "inhibition": "2%"}
{"SMILES": "Cc1cc(CC(=O)O)n(C)c1C(=O)c1ccc(Cl)cc1", "inhibition": "7%"}
{"SMILES": "OC[C@@H](O)[C@@H](O)[C@H](O)[C@@H](O)CO", "inhibition": "-8%"}
{"SMILES": "CC(=O)c1ccc(O)c(C(=O)O)c1", "inhibition": "1%"}
{"SMILES": "COc1cc(O)c(C(=O)Nc2nc(C(=O)NCCN(C(C)C)C(C)C)cs2)cc1OC", "inhibition": "-9%"}
{"SMILES": "COC(=O)c1c(C)cc(OC(=O)c2c(C)cc(O)c(C=O)c2O)c(C)c1O", "inhibition": "-18%"}
{"data": "Study 4", "target": "Fibroblast growth factor receptor 3 (FGFR3, Homo sapiens, UniProt P22607)", "effect on": "enzyme activity", "action": "inhibitor", "concentration": "0.5 µM", "baseline": "control", "chain of UniProt P22607 (whole entry, looked up)": "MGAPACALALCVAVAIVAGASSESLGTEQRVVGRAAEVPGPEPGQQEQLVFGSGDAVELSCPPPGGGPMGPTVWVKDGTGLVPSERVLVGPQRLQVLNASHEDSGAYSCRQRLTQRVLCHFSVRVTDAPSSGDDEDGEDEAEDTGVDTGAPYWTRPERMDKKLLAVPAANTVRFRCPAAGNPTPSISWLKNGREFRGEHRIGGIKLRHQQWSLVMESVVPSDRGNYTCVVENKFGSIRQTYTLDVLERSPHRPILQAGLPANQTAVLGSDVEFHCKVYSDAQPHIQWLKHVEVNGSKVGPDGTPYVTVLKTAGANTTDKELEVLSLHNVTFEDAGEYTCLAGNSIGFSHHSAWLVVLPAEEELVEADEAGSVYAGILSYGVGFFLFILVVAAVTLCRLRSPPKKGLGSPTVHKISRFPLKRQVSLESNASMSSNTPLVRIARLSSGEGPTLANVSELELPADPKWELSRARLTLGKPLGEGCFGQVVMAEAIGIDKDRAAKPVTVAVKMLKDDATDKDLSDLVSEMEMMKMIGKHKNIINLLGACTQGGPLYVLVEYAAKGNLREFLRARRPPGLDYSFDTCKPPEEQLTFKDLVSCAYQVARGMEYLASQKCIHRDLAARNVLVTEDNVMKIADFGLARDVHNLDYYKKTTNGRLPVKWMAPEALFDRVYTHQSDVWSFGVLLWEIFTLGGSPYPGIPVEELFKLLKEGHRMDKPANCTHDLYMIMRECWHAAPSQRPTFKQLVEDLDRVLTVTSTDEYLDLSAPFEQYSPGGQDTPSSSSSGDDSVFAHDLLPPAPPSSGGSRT"}
{"SMILES": "O=S(=O)(c1cccc2cnccc12)N1CCCNCC1", "remaining activity [%]": 94.4}
{"SMILES": "Cc1nc(-c2ccccc2)c(-c2ccncc2)o1", "remaining activity [%]": 95.6}
{"SMILES": "CN(C)c1ccc(C=C2C(=O)Nc3ccccc32)cc1", "remaining activity [%]": 96.3}
{"SMILES": "C#Cc1cccc(Nc2ncnc3cc(OCCOC)c(OCCOC)cc23)c1", "remaining activity [%]": 87.6}
{"SMILES": "O=C(CCCc1ccc(-c2ccccc2F)cc1)Nc1ccc(O)cc1", "remaining activity [%]": 103}
{"SMILES": "OCC(O)CCON=C1C(c2c(O)[nH]c3ccccc23)=Nc2ccccc21 (stereo not drawn)", "remaining activity [%]": 45.8}
{"SMILES": "Cn1c2ccccc2c2c3c(c4c5ccccc5n(CCC#N)c4c21)CNC3=O", "remaining activity [%]": 76.7}
{"SMILES": "Cc1cccc(-c2[nH]c(C(C)(C)C)nc2-c2ccc3c(c2)OCO3)n1", "remaining activity [%]": 96.6}
{"SMILES": "CO[C@H]1C[C@@H]2CC[C@@H](C)[C@@](O)(O2)C(=O)C(=O)N2CCCC[C@H]2C(=O)O[C@H]([C@H](C)C[C@@H]2CC[C@@H](O)[C@H](OC)C2)CC(=O)[C@H](C)/C=C(\\C)[C@@H](O)[C@@H](OC)C(=O)[C@H](C)C[C@H](C)/C=C/C=C/C=C/1C", "remaining activity [%]": 102}
{"SMILES": "CCOC(=O)c1c(C)[nH]c(/C=C2\\C(=O)Nc3ccccc32)c1C", "remaining activity [%]": 80.4}
{"SMILES": "O=C1NC(=O)C(c2cn(CCCn3ccnc3)c3ccccc23)=C1Nc1ccccc1", "remaining activity [%]": 100}
{"SMILES": "Nc1ccc2ncnc(NCCc3ccc(Oc4ccccc4)cc3)c2c1", "remaining activity [%]": 101}
{"SMILES": "CNC(=O)c1cc(Oc2ccc(NC(=O)Nc3ccc(Cl)c(C(F)(F)F)c3)cc2)ccn1", "remaining activity [%]": 89.5}
{"SMILES": "COc1ccc(OC)c2c(=S)c3ccccc3[nH]c12", "remaining activity [%]": 94.9}
{"SMILES": "O=C1NC(=O)C(c2cn(CCCO)c3ncccc23)=C1c1cnccn1", "remaining activity [%]": 78.7}
{"note": "Repeated from above (study 2):"}
{"target": "Ribosomal protein S6 kinase alpha-2, N-terminal kinase domain (RPS6KA2, Homo sapiens, UniProt Q15349)", "remaining binding": "100%"}
{"target": "Tyrosine-protein kinase ABL1, phosphorylated (ABL1, Homo sapiens, UniProt P00519, F317L)", "remaining binding": "100%"}
{"target": "PIK3CA (Homo sapiens, UniProt P42336)", "remaining binding": "100%"}
